# Experimental data gathered from unrelated publications.
# A part holds a random share of what one study measured.

# Block 1 — technique: protein binding microarray; molecule type: double-stranded DNA, one strand shown; matrix: in vitro; concentration: not given; baseline: not given; reading: higher = stronger binding
# Target: Histone acetyltransferase KAT6A, winged helix 2, GST fusion (KAT6A, Homo sapiens, UniProt Q92794, residues 85-181)
# Setting: 8-mer, flanks averaged, mean of 2 arrays, mostly near background
# Target sequence (chain): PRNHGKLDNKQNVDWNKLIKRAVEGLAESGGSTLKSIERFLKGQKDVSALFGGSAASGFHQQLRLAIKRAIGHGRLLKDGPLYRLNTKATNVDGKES
Oligonucleotide,E-score
TCGGAACA,0.0142
CCCGACAG,0.113
ATTGCCGA,0.036
ACTCGTTC,-0.0328
GAATCCCC,-0.0453
ATCTTACA,-0.0647
CTACTCGC,-0.101
AGTCGAGC,-0.072
AACGAGGC,0.0533
GAGGTGGC,0.0375
ATTACAAG,-0.126
AGCTAGAT,-0.0154
CGAGCCCA,0.123
TGTGTAAA,0.102
AGGTTAAC,-0.0614
CTACACTA,-0.111
CTAATGTA,-0.071
CGGGTGGA,0.12
AAAGGTCT,-0.2
ATTGCTCC,0.0351
AGCGCGCT,0.0154
ACCTAAGG,-0.0816
GGATATAA,0.0689
AGCTTAGC,0.13
TAAAGACA,-0.141

# Block 2 — technique: RNA Bind-n-Seq; molecule type: RNA; matrix: in vitro; concentration: not given; setting: RNA with constant flanks, ends assumed; baseline: input RNA pool; reading: higher = stronger binding
# Target: RING finger protein unkempt homolog, zinc fingers 1-6, GST-SBP tag (UNK, Homo sapiens, UniProt Q9C0B0, residues 30-357)
# All sequences stand within: GGGAGUUCUACAGUCCGACGAUC … CAACAGAGGAUUGAGCAUCA
# Construct (chain): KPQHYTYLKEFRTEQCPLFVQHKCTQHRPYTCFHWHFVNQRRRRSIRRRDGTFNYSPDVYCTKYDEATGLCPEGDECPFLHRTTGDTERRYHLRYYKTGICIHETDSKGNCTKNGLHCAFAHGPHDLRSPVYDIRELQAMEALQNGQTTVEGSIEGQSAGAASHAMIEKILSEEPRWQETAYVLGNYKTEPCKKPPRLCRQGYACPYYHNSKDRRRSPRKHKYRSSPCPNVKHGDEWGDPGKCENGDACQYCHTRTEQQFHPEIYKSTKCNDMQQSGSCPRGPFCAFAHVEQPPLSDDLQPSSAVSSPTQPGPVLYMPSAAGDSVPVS
Oligonucleotide,bound/input enrichment [ratio]
ACCCAGGCUGACGAGGACCCUCAGAUGUCCAUGGUUGAAGACUGUCAUGCGUCAGAACAUAACCGCCCUAUCUCCUCCGUUCAGUCUCACCCCAGCCAGUCAGUCCGUUCGGUCAGCAGU,0.0739
UUUGCAAGAAAAAAGACCCGUGUCCUGUCCUUUGUUUGUAACAGUUGCAACACUUGAUAUUUCCGAGGGGUCUUUUACUCUCUUCAAACGUCCUUGAUGUGGUCUGUAAAUUCUGUUUCA,0.169
ACACAUAGAGAAGCUGCAUUGUGGAUUAUAUGGGAAUCACUUUGUGAUGCUUUCUGCUGUCCGUUUUUCUUGGGUUUUUGUUUGUUUUGUUUGCAAAUCUGAUGUCUCAUCACUGCAGGU,0.384
GGAAUGCAGCCUGCUCACAGCGCCCUGAUGCCCUCCGUGACACACAUACCCACCCCUCCACACCGAACACAAGUCCCCCGGUGCAUGCACCAUGCCCACUGCCUUUCUUUGCACUGAUGU,0.373
AUGUCUGCCAGAACACAAUUUAUAUGCCGAAUUAUUGGCUCCAUUAAACUUUUUAAAAACUUCCGCACUGGUUACUUUUUUCCAUUGCAUUCAAUAUGUAGCACCUCCUCACCUCAUGAG,2.81
GAAUCUUCUGACAAUGAAGGUAGGCGGACAACGAGGAGAUUGCUGUCACGCAUAGCUUCCCGCAUGUCAUCUACUUUUUUUUCACGAAGAUCUAGUCAGGAUUCCUUGAAUACAAGAUCA,0.085
CAGAAUACCCAGGGUCUUAUUUUUGUGGUAGAUAGCAACGAUCGUGAAAGAAUUCAGGAAGCCGCAGAUGAGCUGCAGAAAAUGCUUCUGGUAGAUGAAUUGAGAGAUGCAGUGCUGCUA,0.235
AUGGAUGACAAGGCUUCUGUUGGAAAAAUCAGUGUCUCUUCAGACUCAGUAUCUACUCUUAACCGUGAAGAUUUUGUCUUGGUUUCCAGGCAAGGAGAUGAGACACCAUCUACAAAUAAU,0.162

# Block 3 — technique: universal PBM; molecule type: double-stranded DNA, one strand shown; matrix: in vitro; concentration: 600 nM; reading: higher = stronger binding
# Target: Sal-like protein 4, full length isoform A (SALL4, Homo sapiens, UniProt Q9UJQ4, residues 1-1053)
# UniProt Q9UJQ4, sequence (whole entry, looked up): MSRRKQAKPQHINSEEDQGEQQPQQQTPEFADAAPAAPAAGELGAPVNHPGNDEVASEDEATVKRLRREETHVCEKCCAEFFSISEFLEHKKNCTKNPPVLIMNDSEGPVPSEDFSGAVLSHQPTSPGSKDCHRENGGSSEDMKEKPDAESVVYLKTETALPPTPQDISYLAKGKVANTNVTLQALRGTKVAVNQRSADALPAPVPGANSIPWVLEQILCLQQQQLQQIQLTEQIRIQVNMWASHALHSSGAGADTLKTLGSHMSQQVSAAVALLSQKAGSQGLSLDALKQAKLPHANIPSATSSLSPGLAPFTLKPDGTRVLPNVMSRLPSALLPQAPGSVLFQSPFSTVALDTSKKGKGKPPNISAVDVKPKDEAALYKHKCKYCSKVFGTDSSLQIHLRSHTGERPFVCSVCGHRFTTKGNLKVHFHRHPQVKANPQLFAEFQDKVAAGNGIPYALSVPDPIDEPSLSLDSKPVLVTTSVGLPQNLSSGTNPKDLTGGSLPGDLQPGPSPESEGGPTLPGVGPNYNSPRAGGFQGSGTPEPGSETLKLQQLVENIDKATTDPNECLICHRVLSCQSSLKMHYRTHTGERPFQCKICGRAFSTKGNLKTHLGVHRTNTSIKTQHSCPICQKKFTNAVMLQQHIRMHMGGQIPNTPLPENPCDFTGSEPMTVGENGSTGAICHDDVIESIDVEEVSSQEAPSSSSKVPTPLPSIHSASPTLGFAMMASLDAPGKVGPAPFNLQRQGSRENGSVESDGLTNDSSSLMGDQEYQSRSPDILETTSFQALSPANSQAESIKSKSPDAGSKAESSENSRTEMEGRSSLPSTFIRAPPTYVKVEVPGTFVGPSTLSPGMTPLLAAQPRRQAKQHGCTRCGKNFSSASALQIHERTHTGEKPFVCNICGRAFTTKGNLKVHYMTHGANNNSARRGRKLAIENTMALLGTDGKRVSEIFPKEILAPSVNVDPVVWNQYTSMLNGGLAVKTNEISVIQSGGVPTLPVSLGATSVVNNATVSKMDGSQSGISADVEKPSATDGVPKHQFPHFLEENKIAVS
# Setting: 8-mer, flanks averaged, mean of replicates
Oligonucleotide,E-score
AAGCGTCA,0.0102
CTCTGGTC,-0.135
CCCTCGAA,-0.151
CTCGCAAG,-0.0608
AACTGTAA,0.302
CGGCACAG,-0.18
ATCCTCCA,-0.00185
AGGGTTGC,-0.168
GCCATACA,0.0393
AGCACAAC,-0.000295
TGTCGTAA,0.0841
CCAGTGTA,0.0397
ATTGCAAT,0.162
CTGAGCAC,-0.189
GAGCGGCA,-0.238
AGATTCAG,0.036
CGCCATGA,-0.197
CATGGACA,-0.0836
GCGATTCA,-0.11
ATGTCAAG,0.0914
CAGGATCA,-0.116
CTGTCTCA,0.0964
TGTAGACA,0.155
TCAGTAGA,0.061
CCCAGTGA,-0.295

# Block 4 — technique: protein-binding microarray; molecule type: double-stranded DNA, one strand shown; matrix: in vitro; concentration: 250 nM; setting: 60-bp whole probe; added: salmon DNA 0.4 mg/ml; baseline: random background probes; reading: higher = stronger binding; all sequences stand within: GCCTAGCAC … GTCTTGATTCGCTTGACGCTGCTG
# Target: Interferon regulatory factor 5, full length, phosphomimetic (IRF5, Homo sapiens, UniProt Q13568-2, residues 1-514, K96S/S451D/S453D/S456D/S462D)
Oligonucleotide,log fluorescence
TTAGATTTCAGTTGCGATTAGTGCTAG,3.28 z-score
GAGGATATCGGGACTGGAGACGTGCTA,0.189 z-score
TCATTTTCATTTTCTGAAACTGTGCTA,4.83 z-score
TCAAACTTCCCAATGGTACTGTGCTAG,-0.0123 z-score
TTAGGTCTCGGATTGGGTTAGTGCTAG,0.22 z-score
TATGTTCCCTATTTAAGACCGTGCTAG,0.413 z-score
CATTTTCTGAATGTCCTCCTGTGCTAG,1.46 z-score
GACGATTTCCGGTTTCGAGACGTGCTA,4.5 z-score
GAGGGACTGCTTATCCTGACGTGCTAG,-0.554 z-score
TCATTTACCACATTCTCACTGTGCTAG,0.897 z-score
TTAGGTTTCGGTCTCGCTTAGTGCTAG,10.3 z-score
GTAGATTTCAGTTCCGATTAGTGCTAG,2.89 z-score
GACGGACGGGGGACTGGGGACGTGCTA,0.405 z-score
CCTCTTCTGGATCTCAGACTGTGCTAG,-0.0534 z-score
GACGGTATCGACTTTCGAGACGTGCTA,6.26 z-score

# Block 5 — technique: EMSA with sequencing; molecule type: double-stranded DNA, one strand shown; matrix: in vitro; concentration: 10 and 20 nM; baseline: negative control set to 0; reading: higher = stronger binding
# Target: Hepatocyte nuclear factor 3-alpha (Foxa1, Mus musculus, UniProt P35582, residues 1-468, full length assumed)
# Setting: whole designed probe, mean of two concentrations, ends assumed
# All sequences stand within: GTGAGCGGTGCCCATTGATGGGGAAC … TTTCACTGGGATCGTGGGGAC
# Target sequence (chain): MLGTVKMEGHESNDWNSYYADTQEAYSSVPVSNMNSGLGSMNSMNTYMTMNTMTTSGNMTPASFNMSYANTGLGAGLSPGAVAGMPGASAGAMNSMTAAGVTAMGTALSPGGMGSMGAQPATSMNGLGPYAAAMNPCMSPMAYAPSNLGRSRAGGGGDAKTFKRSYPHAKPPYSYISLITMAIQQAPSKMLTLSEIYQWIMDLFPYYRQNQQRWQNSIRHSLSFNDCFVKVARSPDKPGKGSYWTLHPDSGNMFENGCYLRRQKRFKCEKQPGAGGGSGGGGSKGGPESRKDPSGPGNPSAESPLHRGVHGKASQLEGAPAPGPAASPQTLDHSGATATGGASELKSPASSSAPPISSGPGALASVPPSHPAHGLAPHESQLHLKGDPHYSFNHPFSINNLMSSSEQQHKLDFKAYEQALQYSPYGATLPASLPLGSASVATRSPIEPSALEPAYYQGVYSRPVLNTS
Oligonucleotide,normalised bound fraction [ratio]
ATCTTCCCCCTCTTCCTTGCCCCACCAGCTCACCTACGGGGGTTATTTGCACAAAGGAAAATAAATAAAGCCGGCATTCGTTAACCCTCTTCTGGCGCAAACTGCTGTTTGCTCTGCATGAATCATGGTCCTTACGCGAGGCGTGGCTCCGGGAGAGCAAAGCACCGTGTCAGGCGCATGATCCGGGGTGGCC,0.387
CTCATTCCTTGCTTCCGCCAATAATCTGACTAGTAAAGAAGTCACTGCATGCCACAAATTGTCAGTGCTGACTTCCTCGAGTGACTCAGTATTTATTTACTTATTTAATATATGAGTGTCACAGATGCAAATTCCATCTTGAGAATACCAACTCCTGATGCCAACTGATTGTCAGTCATGGCTACAACAGGAG,0.458
ATAAAGATATTATGGTTATATAGAAAAATATCCTTATTTTGACGGCTGTACCATTTGAAGTATTTAGGGGACAAATGTCATGATGCCTATCTATATTTACTTTTAAATTGTTCAGCAAAAATAGCGGTATATAAGTATTTATAATAGATAGTAGATGAATCAAATATGGTCAAATGTTAGTTTTTGTTTTTGA,0.324
ACCCATGTTTTAATAATCCAGAACATCAGTTGAGTACAAAATCTCTTTTTCTAATTAAGAATGTTTGACCACAAGAGGGAGTTCCTTGCCAACAGATTACTTAGCCTCAGCAGATATGATGGGCCAGAATTTACACAGAAAAATACCTTCAAATATATTTAGTTTCTTCAGTGCTTTTAGATTGAGAAAATGA,0.0168
CATGTACAAACAAAATATGGGTTGTGTAATTTCAGTAATTCCATGTACAAGTTAAACACTCTGATATTTGCATTTAAAAATTGCACAATTGTCGTAAACATGAATGCTAACAATCTTTTTTTTTTTTCCTGAGACGGAGTCTTGCTCTATCGCCCAGGCTGGAGTGCAGCGGCACAATCTCTGCTTACTGCCA,0.18
TTAACTGATTGGAACAGTTACTTGGAAACATTAAATTGGTGGCAGAAAAAGTGAAACAATTATAAATGCAATGATCAAAAACAGAAAATAAAAAGTAATCTTGAATTTAAGACAATGATCTAATCAAGAAGCAATGAATTCCTGAGTGAATGAGTATAGTGGGAAAAAACAGAGAGGAGTAAATATGGGAGCT,0.00549
ATCTTCCCCCTCTTCCTTGCCCCACCAGCTCACCTTCCCGGGTTTGTGGAAGAACAAAATTATAATAAAGCCGGCATTCGTTAACCCTCTTCTGGCGCAAACTGCTGTTTGCTCTGGATGAATCATGGTCCTTTGGCGACGCCAGGCTCCGGGAGAGCAAAGCACCGTGTCAGGGCCATGATCCGGGGTGGCC,0.174
TTGCAGGCTGCAGTGATGTCCTTCATATCACGTCATCTTAGTGCCACTTCATCTTTATTGGCATCTCTGGGAGGAACAAAACCCCAGTGGTATGCAAACACCGTCATGGGGACTTGCTTCAAGCCATGGGAAGTTTCACGCAAAGCCAGTTTCTCAGTAGGGCAAATGTTGTGTAAAAGTACAAGAAGTTTGA,0.15
